Results collected from several papers.
Compare with care: the assays were run in different laboratories. Values joined by “and” are separate records of one study, mostly repeats; a detail may differ. Numbers after ± are the reported error.

Structure (SMILES)	assay	test system	setting	how to read	quantity	result
CN1Cc2cc(Cl)ccc2-n2c(nnc2C2CCN(c3cccc([18F])n3)CC2)C1	–	C57BL/6 mouse male, kidney	intravenous, 3.7 MBq, 15 min	–	tissue uptake	11.2 ± 2.25 %ID/g
C/C(=N\OCCCN1CCCCC1)c1ccc(C(F)(F)F)cc1	–	mouse, plasma	oral, 50 mg/kg once daily, day 1	–	AUC(0-t)	6130 ± 1600 ng·h/mL
N#[11C]c1ccc(-c2csc(NN=C3CCCC3)n2)cc1	–	C57BL/6 mouse, male	intravenous, 3 MBq, 15 min	–	uptake in blood	5.1 ± 0.4 %ID/g
CSCC[C@H](NC(=O)CNC(=O)[C@H](CCCCN)NC(=O)[C@H](CC(C)C)NC(=O)[C@@H]1CCCN1C(=O)[C@H](CO)NC(=O)[C@H](Cc1c[nH]cn1)NC(=O)[C@H](Cc1c[nH]c2ccccc12)NC(=O)[C@H](CCCNC(=N)N)NC(=O)[C@H](CC(C)C)NC(=O)[C@H](CCCNC(=N)N)NC(=O)[C@H](Cc1c[nH]c2ccccc12)NC(=O)[C@H](CS)NC(=O)CCCCCNC(=O)CN1CCN(CC(=O)O)CCN(CC(=O)O)CCN(CC(=O)O)CC1)C(=O)O [copper-64 labelled]	ex vivo biodistribution	C57BL/6J mice bearing B16-F10 tumours, liver	intravenous, 1.85 MBq, 2 h	–	tissue uptake	20.7 %ID/g
CC(C)=CCC/C(C)=C\CCn1cc(CC(P(=O)(O)O)P(=O)(O)O)nn1	–	CD-1 mouse, plasma	intravenous, 0.5 mg/kg, single dose	–	AUC(0-inf)	534 ± 32 ng·h/mL
O=C(CN1C(=O)C2(CCN(C(=O)c3ccc4[nH]ncc4n3)CC2)c2c(Br)cccc21)NCC(F)(F)F	–	PAMPA	–	–	Papp	1.94 ×10⁻⁶ cm/s
CC1(C)C(=O)N(c2ccc(C#N)c(C(F)(F)F)c2)C(=S)N1c1ccc(C(=O)O)c(F)c1	–	human, male, plasma	oral, 160 mg, soft capsule	–	Cmax	155 ± 52.8 ng/mL
CC(C)C[C@@H](NC(=O)[C@@H](CCCNC(=N)N)NC(=O)[C@@H](Cc1c[nH]cn1)NC(=O)[C@@H](Cc1c[nH]c2ccccc12)NC(=O)[C@@H](Cc1c[nH]cn1)NC(=O)[C@@H](Cc1ccccc1)NC(=O)[C@H](NC(=O)[C@@H](Cc1ccc(O)cc1)NC(=O)CNC(=O)CNC(=O)CCOCCOCCOCCNC(=O)CN1CCN(CC(=O)O)CCN(CC(=O)O)CC1)[C@H](C)O)C(=O)N[C@H](CC(N)=O)C(=O)N1CCC[C@@H]1C(=O)O [gallium-68 labelled]	OLINDA/EXM	adult female human, Gallbladder wall	extrapolated from C57BL/6 mice	–	organ absorbed dose	0.0119 ± 0.000115 mSv/MBq
Cc1ccccc1-c1ccc(-c2nc(-c3ccc(CN(C)CCCC(=O)O)c([18F])c3)no2)cc1C(F)(F)F	–	rat, kidney	1 h	–	tracer uptake	0.79 %ID/g
N=C(N)NCCC[C@H](NC(=O)[C@H](CCCNC(=N)N)NC(=O)[C@H](CCCNC(=N)N)NC(=O)[C@H](CCC(N)=O)NC(=O)[C@H](CCCNC(=N)N)NC(=O)[C@H](CCCNC(=N)N)NC(=O)[C@H](CCCCN)NC(=O)[C@H](CCCCN)NC(=O)[C@H](CCCNC(=N)N)NC(=O)CNC(=O)[C@H](Cc1ccc(O)cc1)NC(=O)[C@H](Cc1ccccc1)NC(=O)[C@H](Cc1ccccc1)NC(=O)[C@H](Cc1ccccc1)NC(=O)OCC1c2ccccc2-c2ccccc21)C(=O)O	TEM	PBS 10 mM	64 µM, overnight, pH 7.4	–	nanorod diameter	33.4 ± 6.8 nm
CNC(=O)C[C@H](Cc1ccc(F)cc1)NC(=O)[C@@H](Cc1ccc(Cl)cc1Cl)NC(=O)[C@H](N)Cc1ccccc1C#N	metabolic stability	CD-1 mouse, liver microsomes	1 µM	–	microsomal CLint	794 µL/min/mg
O=C1NC2(CC2)COc2ncc(F)cc2[C@H]2COCCN2c2ccn3ncc1c3n2	–	Sprague-Dawley rat, female, liver	oral, 5 mg/kg/day, 4 weeks dosing, end of recovery	–	organ-to-body weight ratio	2.83 ± 0.209%
C(#Cc1cncc(OC[C@@H]2CCN2)c1)c1ccccc1	–	male Sprague-Dawley rat, plasma	oral, 75 mg/kg, 5 h	–	concentration	300 ng/mL
CCc1nn(C)c2nc(-c3ccc(C(=O)O)cc3)nc(NCc3ccccc3)c12	–	NSG mice	dose not given, day 4	–	body weight	23.3 g and 20.6 g and 20.8 g and 22.2 g
CCCCCCCCCCCCCCCC(=O)N[C@@H](CCC(=O)NCCOCCOCCC(=O)NCCOCCOCCC(=O)NCCCC[C@H](NC(=O)[C@H](CC(=O)O)NC(=O)[C@H](CC(C)C)NC(=O)[C@H](Cc1ccc(O)cc1)NC(=O)[C@H](CCCCN)NC(=O)[C@H](CO)NC(=O)[C@H](Cc1ccc(O)cc1)NC(=O)[C@H](CC(=O)O)NC(=O)[C@H](CO)NC(=O)[C@@H](NC(=O)[C@H](Cc1ccccc1)NC(=O)[C@@H](NC(=O)CNC(=O)[C@H](CCC(N)=O)NC(=O)[C@@H](CO)NC(=O)[C@@H](N)Cc1c[nH]cn1)[C@@H](C)O)[C@@H](C)O)C(=O)N[C@@H](CCCNC(=N)N)C(=O)N[C@@H](CCCNC(=N)N)C(=O)N[C@@H](C)C(=O)N[C@@H](CCC(N)=O)C(=O)N[C@@H](CC(=O)O)C(=O)N[C@@H](Cc1ccccc1)C(=O)N[C@H](C(=O)N[C@@H](CCC(N)=O)C(=O)N[C@@H](Cc1c[nH]c2ccccc12)C(=O)N[C@@H](CC(C)C)C(=O)N[C@@H](CC(C)C)C(=O)N[C@@H](CC(N)=O)C(=O)N[C@H](C(=O)NCC(=O)NCC(=O)N1CCC[C@H]1C(=O)N[C@@H](CO)C(=O)N[C@@H](CO)C(=O)NCC(=O)N[C@@H](C)C(=O)N1CCC[C@H]1C(=O)N1CCC[C@H]1C(=O)N1CCC[C@H]1C(=O)N[C@@H](CO)C(N)=O)[C@@H](C)O)C(C)C)C(=O)O	–	rhesus monkeys	intravenous, 15.3 µg/kg single	–	Vss	37.9 ± 3.47 mL/kg
CSCC[C@H](N)C(=O)N[C@@H](C)C(=O)N[C@@H](CCCNC(=N)N)C(=O)N[C@@H](CCCNC(=N)N)C(=O)N[C@@H](CC(=O)O)C(=O)N[C@@H](CCCCN)C(=O)N[C@H](C(=O)N[C@@H](CC(=O)O)C(=O)N[C@@H](Cc1ccccc1)C(=O)N[C@@H](C)C(=O)N[C@@H](CCCNC(=N)N)C(=O)N[C@@H](CCCNC(=N)N)C(=O)N[C@@H](CCCNC(=N)N)C(=O)N[C@@H](CCCNC(=N)N)C(=O)NCCCCCC(=O)NCCCCC(NC(=O)CCCCCNC(=O)[C@H](CCCNC(=N)N)NC(=O)[C@H](CCCNC(=N)N)NC(=O)[C@H](CCCNC(=N)N)NC(=O)[C@H](CCCNC(=N)N)NC(=O)[C@H](C)NC(=O)[C@H](Cc1ccccc1)NC(=O)[C@H](CC(=O)O)NC(=O)[C@@H](NC(=O)[C@H](CCCCN)NC(=O)[C@H](CC(=O)O)NC(=O)[C@H](CCCNC(=N)N)NC(=O)[C@H](CCCNC(=N)N)NC(=O)[C@H](C)NC(=O)[C@@H](N)CCSC)[C@@H](C)O)C(=O)NCCCCC(NC(=O)C(CCCCNC(=O)CCCCCNC(=O)[C@H](CCCNC(=N)N)NC(=O)[C@H](CCCNC(=N)N)NC(=O)[C@H](CCCNC(=N)N)NC(=O)[C@H](CCCNC(=N)N)NC(=O)[C@H](C)NC(=O)[C@H](Cc1ccccc1)NC(=O)[C@H](CC(=O)O)NC(=O)[C@@H](NC(=O)[C@H](CCCCN)NC(=O)[C@H](CC(=O)O)NC(=O)[C@H](CCCNC(=N)N)NC(=O)[C@H](CCCNC(=N)N)NC(=O)[C@H](C)NC(=O)[C@@H](N)CCSC)[C@@H](C)O)NC(=O)CCCCCNC(=O)[C@H](CCCNC(=N)N)NC(=O)[C@H](CCCNC(=N)N)NC(=O)[C@H](CCCNC(=N)N)NC(=O)[C@H](CCCNC(=N)N)NC(=O)[C@H](C)NC(=O)[C@H](Cc1ccccc1)NC(=O)[C@H](CC(=O)O)NC(=O)[C@@H](NC(=O)[C@H](CCCCN)NC(=O)[C@H](CC(=O)O)NC(=O)[C@H](CCCNC(=N)N)NC(=O)[C@H](CCCNC(=N)N)NC(=O)[C@H](C)NC(=O)[C@@H](N)CCSC)[C@@H](C)O)C(N)=O)[C@@H](C)O (some centres unmarked)	–	C57BL/6 mouse female, femur	dose not given, 3 h	baseline: total	tissue distribution	1.21% and 1.08% and 1.75%
COc1ccc(CNc2ccc3c(c2)S(=O)(=O)C=C3)cc1	flow cytometry	male C57BL/6 mice, spleen	i.p., 10 mg/kg, 8 days	baseline: splenocytes	CD45+ cells	54.3%
C#Cc1c(F)ccc2cc(O)cc(-c3ncc4c(N5CC6CCC(C5)N6C(=O)OC(C)OC(=O)C(CCCC)CCCC)nc(OC[C@@]56CCCN5C[C@H](F)C6)nc4c3F)c12 (some centres unmarked)	measured: prodrug	mouse whole blood	1 µM	–	t1/2	99 min
C=C/C=C/C[C@@H](C)[C@@H](O)[C@H]1C(=O)N[C@@H](CC)C(=O)N(C)CC(=O)N(C)[C@@H](CC(C)C)C(=O)N[C@@H](C(C)C)C(=O)N(C)[C@@H](CC(C)C)C(=O)N[C@@H](C)C(=O)N[C@H](C)C(=O)N(C)[C@@H](CC(C)C)C(=O)N(C)[C@@H](CC(C)C)C(=O)N(C)[C@@H](C(C)C)C(=O)N1C	–	male Wistar Kyoto rat	intraperitoneal, 0.5 mg/kg/day, day 18	baseline: vehicle	fractional chloride excretion	no effect
CC[C@H](C)[C@H](NC(=O)[C@H](CCCCN)NC(=O)CNC(=O)[C@H](CC(C)C)NC(=O)[C@H](Cc1ccccc1)NC(=O)[C@H](CCCCN)NC(=O)[C@H](CO)NC(=O)[C@H](Cc1ccccc1)NC(=O)[C@H](Cc1c[nH]c2ccccc12)NC(=O)[C@H](CCC(N)=O)NC(=O)[C@@H](NC(=O)[C@H](Cc1ccccc1)NC(=O)CCCCCNC(=O)CN1CCN(CC(=O)O)CCN(CC(=O)O)CCN(CC(=O)O)CC1)C(C)C)C(=O)N[C@@H](CCC(=O)O)C(=O)N1CCC[C@H]1C(=O)N[C@@H](CC(=O)O)C(=O)N[C@H](C(=O)N[C@@H](CO)C(=O)N[C@@H](CCC(N)=O)C(=O)N[C@H](C(=O)N[C@@H](CCC(N)=O)C(=O)N[C@@H](CC(=O)O)C(=O)N1CCC[C@H]1C(=O)N[C@@H](CC(N)=O)C(=O)N[C@@H](CC(=O)O)C(=O)N[C@@H](CCC(N)=O)C(=O)N[C@@H](Cc1ccc(O)cc1)C(=O)N[C@@H](CCC(=O)O)C(=O)N1CCC[C@H]1C(=O)N[C@@H](Cc1ccccc1)C(=O)O)C(C)C)C(C)C [copper-64 labelled]	–	C57BL/6 mice, male, naive, brown fat	4 h	–	tissue uptake	3.25 ± 0.8 %ID/g

For quick reference, copied from above:
Structure (SMILES)	assay	test system	setting	how to read	quantity	result
COc1ccc(CNc2ccc3c(c2)S(=O)(=O)C=C3)cc1	flow cytometry	male C57BL/6 mice, spleen	i.p., 10 mg/kg, 8 days	baseline: splenocytes	CD45+ cells	54.3%
